Measurements pooled from the literature.
A part holds a random share of what one study measured.

Sample 1 — method: universal PBM; form: double-stranded DNA, one strand shown; medium: in vitro; tested at: 600 nM; direction: higher = stronger binding
Target: Sal-like protein 4, full length isoform A (SALL4, Homo sapiens, UniProt Q9UJQ4, residues 1-1053)
UniProt Q9UJQ4, sequence (whole entry, looked up): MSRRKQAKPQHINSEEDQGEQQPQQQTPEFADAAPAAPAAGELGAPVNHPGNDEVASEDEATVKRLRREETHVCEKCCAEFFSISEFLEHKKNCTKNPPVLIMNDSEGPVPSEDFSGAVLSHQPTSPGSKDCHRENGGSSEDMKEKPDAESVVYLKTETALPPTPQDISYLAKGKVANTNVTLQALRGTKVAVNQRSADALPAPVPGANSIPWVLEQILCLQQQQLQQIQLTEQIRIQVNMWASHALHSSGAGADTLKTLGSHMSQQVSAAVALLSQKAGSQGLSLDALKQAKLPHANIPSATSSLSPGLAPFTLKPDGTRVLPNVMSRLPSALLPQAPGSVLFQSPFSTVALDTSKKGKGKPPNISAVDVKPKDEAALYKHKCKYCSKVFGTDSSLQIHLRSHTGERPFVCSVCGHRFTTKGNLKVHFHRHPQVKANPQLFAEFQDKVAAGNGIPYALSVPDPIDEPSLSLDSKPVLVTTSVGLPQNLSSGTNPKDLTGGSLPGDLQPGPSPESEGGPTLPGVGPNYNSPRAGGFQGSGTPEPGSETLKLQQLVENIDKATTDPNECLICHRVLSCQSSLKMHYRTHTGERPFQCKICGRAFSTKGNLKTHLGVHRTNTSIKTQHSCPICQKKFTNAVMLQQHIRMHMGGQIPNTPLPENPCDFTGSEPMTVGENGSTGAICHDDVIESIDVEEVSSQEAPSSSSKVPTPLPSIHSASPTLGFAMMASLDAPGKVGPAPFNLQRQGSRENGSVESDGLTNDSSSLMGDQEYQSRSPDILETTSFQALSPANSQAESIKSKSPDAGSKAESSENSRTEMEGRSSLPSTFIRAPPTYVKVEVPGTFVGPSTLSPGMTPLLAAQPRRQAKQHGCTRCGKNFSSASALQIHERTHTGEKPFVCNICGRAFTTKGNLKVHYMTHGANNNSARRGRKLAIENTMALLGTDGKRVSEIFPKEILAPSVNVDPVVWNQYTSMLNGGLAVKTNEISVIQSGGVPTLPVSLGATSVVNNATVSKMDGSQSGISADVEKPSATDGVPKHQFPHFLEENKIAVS
Setting: 8-mer, flanks averaged, mean of replicates
Strand	E-score
ATTAAAAC	0.327
TATGATCA	0.297
ATAGCCTA	0.151
ACTTGATC	0.133
ACTTGTTA	0.259
ATCCTGAA	0.127
CCACATTA	0.2
ATTTCGAA	0.286
ACGAAAAC	0.157
AGCGGGCC	-0.352
ATTCTTCC	0.112
CAGCTGCC	-0.165
CTCGTATA	0.103
AGAATATC	0.169
ACCTCTGC	-0.146
ACCTGGTA	-0.174
CGCGAAGC	-0.102
TCCGACGA	-0.00409
GACCGAGA	-0.072
ATCCCTCG	-0.168
CCTTATTA	0.33
AAGGGGCG	-0.246
CAGTCCGG	-0.336
TCACCAGA	-0.127
AGCTAATG	-0.00519

Sample 2 — method: protein-binding microarray; form: double-stranded DNA, one strand shown; medium: in vitro; tested at: 250 nM; setting: 60-bp whole probe; added: salmon DNA 0.4 mg/ml; reference: random background probes; direction: higher = stronger binding; shared flanks, not repeated: GCCTAGCAC … GTCTTGATTCGCTTGACGCTGCTG
Target: Interferon regulatory factor 5, full length, phosphomimetic (IRF5, Homo sapiens, UniProt Q13568-2, residues 1-514, K96S/S451D/S453D/S456D/S462D)
Strand	log fluorescence
CGTACTGTATCTAGCCTTGCGTGCTAG	-0.197 z-score
GACGATTTCAGTTTCGAGTCGTGCTAG	7.92 z-score
TTAGGACTGCTTTCCCTTTAGTGCTAG	0.807 z-score
TTAGGTCTCGATATCGGTTAGTGCTAG	3.71 z-score
TTAGGTATCGGTATTGGTTAGTGCTAG	7.16 z-score
TCTGTTTCCTCTTTCTTTGCGTGCTAG	1.84 z-score
GACGGACTGGGTCCCGGGACGTGCTAG	-0.821 z-score
TTAGTTTTCAGTTCCGATTAGTGCTAG	3.88 z-score
GACGGGTTCGGGTATCGGGACGTGCTA	0.344 z-score
GACGGCTTCGACACTGGGGACGTGCTA	-0.186 z-score
TTAGATTTTAGTCTCGATTAGTGCTAG	1.68 z-score
GTTGTTTTAAATTCTAATTAGTGCTAG	0.766 z-score
AACGGTTTCCTTTTCCTGACGTGCTAG	1.6 z-score
AGGACTCGAATCCTGCAGGGGTGCTAG	-0.535 z-score
GGCGGTCTCCTTCTCCTGACGTGCTAG	-0.663 z-score
CTTTCTTTACTTCACTCTCTGTGCTAG	1.86 z-score
GTGATCCGTCCGCCTCAGCCGTGCTAG	-0.552 z-score
GACGGACTGAGACTGGAGACGTGCTAG	-0.39 z-score
GACGGTTTCGACACTGGGGACGTGCTA	4.42 z-score
GACGGTCTCCTTATCCTGCCGTGCTAG	-0.115 z-score
TCAGGTCTTCACTTGGCACTGTGCTAG	0.00359 z-score
GACGAACTGGGGACTAGAGACGTGCTA	-0.376 z-score
TTAGGTTTCGGAACTGGGTTAGTGCTA	5.93 z-score

Sample 3 — method: RNA Bind-n-Seq; form: RNA; medium: in vitro; tested at: not given; reference: input RNA pool; direction: higher = stronger binding
Target: RING finger protein unkempt homolog, zinc fingers 1-6, GST-SBP tag (UNK, Homo sapiens, UniProt Q9C0B0, residues 30-357)
UniProt Q9C0B0, sequence (30-357, looked up): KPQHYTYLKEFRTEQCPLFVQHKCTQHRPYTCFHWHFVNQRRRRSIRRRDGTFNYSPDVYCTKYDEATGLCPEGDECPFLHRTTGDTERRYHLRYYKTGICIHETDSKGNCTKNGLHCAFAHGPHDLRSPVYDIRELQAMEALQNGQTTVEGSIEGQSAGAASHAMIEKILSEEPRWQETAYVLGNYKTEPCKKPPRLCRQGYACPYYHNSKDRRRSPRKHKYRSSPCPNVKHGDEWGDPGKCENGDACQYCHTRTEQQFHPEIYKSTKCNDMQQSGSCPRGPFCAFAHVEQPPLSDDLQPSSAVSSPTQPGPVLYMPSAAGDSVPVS
Setting: RNA with constant flanks, human-mouse chimeric sites, ends assumed
Shared flanks, not repeated: GGGAGUUCUACAGUCCGACGAUC … CAACAGAGGAUUGAGCAUCA
Strand	bound/input enrichment [ratio]
AAAGUGAUGACUAUGUUUGUACAGCGACAGGUAUUUUCGGAGAGCAAAGAUGAGAUUGCGUUAGUCCUCUAUGGCACAGAUGGCACUGAUAAUGCCCUUUCUGGUGGGGACCAGUAUCAG	0.306
AUGGAAAAGGAUUCUCUGCCCCGCUUUGUGCGCUCUGAAUUUUAUAAGGAGCUAAUCAAGUAGUCAUCUGGUCAGGCUAUGAAAUCAUGCCCUGUGAGUUGAGUUACAUCCUUUGUAGCA	0.29
AAAGAACCUCUCUCUGAUGAAGAUGAGGACAGUGAUGAUGAUGUUGAACCCAUUUCUGAAUUUCGAUUUGUGCCCAGUGAUAAAUCAGCAUUGGAGGCGAUGUUCACAGCAAUGUGUGAG	0.212
UUUCUACUGCAGCAAACGAUGCUAAGAAUUAAGGAUCCUAAGAAGUCCCUGGAUUUUUAUACGAGGGUUCUUGGACUGACCCUCCUGCAAAAAUGUGACUUCCCUGCUAUGAAGUUUUCG	0.299
AAAGAAUGGAUAGAAUGUGCACACGGGAUCGGUGGGACCCGGGCGAAAAAGGAGUGCAAGAUAGAGUUCGAUGACUUCGAAGAGUGCUUGCUUCGGUACAAAACGAUGAGGCGAAUGCAU	0.589
GUACUGCAACAGCAGGGAAAACUGCAGGAAGCUCUGAUGCAUUAUAAGGAGGCUAUUCGAAUCAGUCCUACAUUUGCUGAUGCCUACUCUAAUAUGGGAAACACUCUAAAGGAGAUGCAG	0.215
AGAUUCCCCCUCCUGAGACCUCCUCCGAAGUUGGAGUCUCUUACAGAUGCCUCAUCCCCUGUUAGCGUUUUAGUUUGGACCACACAACCUUGGACAAUUCCAGCCAACCAGGCAAUUUGC	2.16
AUAAAAGCUAUGUUGAGUGGUCCAGGUCAGUUUGCUGAGAACGAAACCAACGAGGUCAAUUUUAGAGAGAUCCCCUCACAUGUGCUAUCAAAAGUGUGCAUGUAUUUUACCUACAAGGUC	0.185
AACAGAUUGUCUUUAAGCAUUCCAAGCGAGAAUGCUGAAAUAGUCAUAAUUACCCACGUGCCUUCUGACUGAGCUUUAAUGCUGUUCCAUGUUACAUCUUUCCUUCACUCCAGAAUUGUU	0.622
UGGGCACUCUAUCAGAUAUAUUAAUUUUUUAAUGUAGAUGUAAUUUUAAAAAUGAAUGGCUACUUUACACGUUUAACUAGGCUCUUACUAUAUAUGUGUACAUAUGUAUAUAUAUAUAUA	8.13
AUGGAACAUUUUGAUGCGUCACUCAGUACCUAUUUCAAGGCCUUCCUGGGCCCCCGAGAUACUAGAGUCAAAGGAUGGUUCCUCCUGGACAAUUACAUCCCUACGUUUGUCUGUUCUGUU	0.109

Sample 4 — method: RNA Bind-n-Seq; form: RNA; medium: in vitro; tested at: 365 nM; reference: no-protein control; direction: higher = stronger binding
Target: RNA binding protein fox-1 homolog 2, RRM domain, GST-SBP tag (RBFOX2, Homo sapiens, UniProt O43251-10, residues 100-194)
Setting: natural RNA segment, single round, ends assumed
Shared flanks, not repeated: GGGAGUUCUACAGUCCGACGAUC … UGGAAUUCUCGGGUGCCAA
Construct (chain): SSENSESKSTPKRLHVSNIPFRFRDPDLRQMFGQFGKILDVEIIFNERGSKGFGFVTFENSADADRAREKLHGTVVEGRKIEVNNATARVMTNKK
Strand	RBNS enrichment (R)
UUACUCUUCUGUUUGGGAUCGCUCCCACUCUUGUUCCCUUUUUUUCAUUCCUGGCAAUUCCCUCCCAAUCCUGCAGGUGCAACCUGCCAGGCCUGGGCCAUUGUCCUCAU	0.163
GUGGCAGAUGUUUGAGGAAAGGAAUUAUGCCAGGAAGGUGGGACCGGGUUAUGGUCGGGUUUCUAUUGGGAAUGCUCUUUGUGCUUUUGGGCAUCUGAAUGGAAGCUUUA	2.75
UUCCGCCAGCAGAGAGAUUGCAGCCUUCUUCCUGACUUCAGUGAACAGCGCUGGUAUGAGGAGGAGGAACCCCAGCUGCGGUGUGGUCCUGUGCACUACAGUCCAGAGGA	0.316
UAAUAAUGAUGUGAAACAUAAAGAUUUAAUAAUUACUGUCCAACACAGUGGAGCAGCUUGUCCACAAAUAUAGUAAUUACUAUUUAUUGCUCUAAGGAAGAUUAAAAAAA	0.743
GAACAAUGCUUGGAAAUAUUAUGUGACUUUUUUGUUUGUUUGUUUUAGGAGGAUGGUGUAUGGUGGGGGCAAUAAAUGAGGUUUUUUGCAUUCCAAGGAAAUGGCAUAUG	1.66
UCUUGGUGUUUUCACGUUCGUCUGUGAGGACUCAUAGACUUACAGAAUGAUGCCGAAUGGAAUGUUUUGUGCAUGACCUUUUAACCUUUGGCUAUUGCCAAUUCCCCACU	1.02
UCCUCGGAAGAUGCACUGUGCUGUUUGAAAACAUGUAGCCGUUUAAGGCUAGAGUAUUUUAUAUAAAUAGAAGAGCUUAGGUCCUGAAGACCAAGGCAGAUAGAUGCAGC	0.51
UUCAACUGGGGGAAAAUAAAACUUUGAGCAUUUCCCUUGGAACUUGAGAUCAGAUCAUAACUCACUUGCCCAGAGGCAGCAGAAAUCUGAUCCUACUACUGGAGCUUAAA	0.288
ACAUCCAGUUUUUAAGACAGAAUGAGAUGGGAAAGAGGUACAAAAUAAUCUGCUGCCAUUCCUUGUCUGAAUGGCUCAGCAGGAGUAACUGUUAUCUCCUCUCCUAAGGA	0.243
CAGACAAGAAGCUUCCUGAAAUGGACAUUGAUUGUUCCAACACUUGUUUCUAUUAAAACAGACUAUUAUAAAGCUUUAAGUUGUCAACUUUGUUCUAAAUAUCAACUAGC	0.403
UAAUAUGUAUGACCAAUGUAGCCAUUGCUUUAAAAUGUACCGUGUAAAUAUAAACACAUCCUAUCAGUCGCUGGCUUUGGGGUAUUUGUCUGGCAGGAGACGAGGUGAUG	0.352
AACUCAGGUAAUUUCCAUUUCUGGUUUUAUAUUCUCUGUAUCUCCUGCCUGGGUGUCACUUUCUAGACAGUAAGGCGCUCCACUGCUUGCUGUCUGAGAUAUCCUUCAUA	0.197

For quick reference, copied from above (sample 3):
Strand	bound/input enrichment [ratio]
UUUCUACUGCAGCAAACGAUGCUAAGAAUUAAGGAUCCUAAGAAGUCCCUGGAUUUUUAUACGAGGGUUCUUGGACUGACCCUCCUGCAAAAAUGUGACUUCCCUGCUAUGAAGUUUUCG	0.299
AAAGAAUGGAUAGAAUGUGCACACGGGAUCGGUGGGACCCGGGCGAAAAAGGAGUGCAAGAUAGAGUUCGAUGACUUCGAAGAGUGCUUGCUUCGGUACAAAACGAUGAGGCGAAUGCAU	0.589
GUACUGCAACAGCAGGGAAAACUGCAGGAAGCUCUGAUGCAUUAUAAGGAGGCUAUUCGAAUCAGUCCUACAUUUGCUGAUGCCUACUCUAAUAUGGGAAACACUCUAAAGGAGAUGCAG	0.215
AGAUUCCCCCUCCUGAGACCUCCUCCGAAGUUGGAGUCUCUUACAGAUGCCUCAUCCCCUGUUAGCGUUUUAGUUUGGACCACACAACCUUGGACAAUUCCAGCCAACCAGGCAAUUUGC	2.16
